{"data": "Published values collected from several papers", "note": "Protocols differ between the studies behind these lines. “And” joins repeats or separate records; there may be more than shown. ± gives the spread as reported.", "UniProt Q8IWT6, sequence (whole entry, unmodified, looked up)": "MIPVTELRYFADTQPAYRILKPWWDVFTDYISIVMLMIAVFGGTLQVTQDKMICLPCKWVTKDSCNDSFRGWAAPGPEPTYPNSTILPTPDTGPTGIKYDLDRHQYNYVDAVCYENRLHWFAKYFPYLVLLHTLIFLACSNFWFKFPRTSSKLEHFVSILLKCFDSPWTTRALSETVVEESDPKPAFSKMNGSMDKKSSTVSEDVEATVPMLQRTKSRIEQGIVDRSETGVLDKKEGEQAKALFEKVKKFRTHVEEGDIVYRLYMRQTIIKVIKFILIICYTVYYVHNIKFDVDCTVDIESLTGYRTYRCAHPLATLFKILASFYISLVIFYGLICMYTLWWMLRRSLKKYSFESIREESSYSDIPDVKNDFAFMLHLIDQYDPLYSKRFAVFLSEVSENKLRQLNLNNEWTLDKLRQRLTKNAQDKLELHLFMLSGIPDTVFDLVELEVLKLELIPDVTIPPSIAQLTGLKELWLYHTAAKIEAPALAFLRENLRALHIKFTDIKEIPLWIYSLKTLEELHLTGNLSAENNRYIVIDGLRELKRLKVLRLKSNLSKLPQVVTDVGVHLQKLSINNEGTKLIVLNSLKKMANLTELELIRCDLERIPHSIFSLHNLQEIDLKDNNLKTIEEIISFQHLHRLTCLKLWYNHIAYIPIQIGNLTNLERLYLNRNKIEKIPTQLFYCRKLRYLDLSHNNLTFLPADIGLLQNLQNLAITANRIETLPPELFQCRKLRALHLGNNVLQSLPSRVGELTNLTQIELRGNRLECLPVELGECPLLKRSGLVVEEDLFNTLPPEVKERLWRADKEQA", "UniProt P05067, sequence (whole entry, looked up)": "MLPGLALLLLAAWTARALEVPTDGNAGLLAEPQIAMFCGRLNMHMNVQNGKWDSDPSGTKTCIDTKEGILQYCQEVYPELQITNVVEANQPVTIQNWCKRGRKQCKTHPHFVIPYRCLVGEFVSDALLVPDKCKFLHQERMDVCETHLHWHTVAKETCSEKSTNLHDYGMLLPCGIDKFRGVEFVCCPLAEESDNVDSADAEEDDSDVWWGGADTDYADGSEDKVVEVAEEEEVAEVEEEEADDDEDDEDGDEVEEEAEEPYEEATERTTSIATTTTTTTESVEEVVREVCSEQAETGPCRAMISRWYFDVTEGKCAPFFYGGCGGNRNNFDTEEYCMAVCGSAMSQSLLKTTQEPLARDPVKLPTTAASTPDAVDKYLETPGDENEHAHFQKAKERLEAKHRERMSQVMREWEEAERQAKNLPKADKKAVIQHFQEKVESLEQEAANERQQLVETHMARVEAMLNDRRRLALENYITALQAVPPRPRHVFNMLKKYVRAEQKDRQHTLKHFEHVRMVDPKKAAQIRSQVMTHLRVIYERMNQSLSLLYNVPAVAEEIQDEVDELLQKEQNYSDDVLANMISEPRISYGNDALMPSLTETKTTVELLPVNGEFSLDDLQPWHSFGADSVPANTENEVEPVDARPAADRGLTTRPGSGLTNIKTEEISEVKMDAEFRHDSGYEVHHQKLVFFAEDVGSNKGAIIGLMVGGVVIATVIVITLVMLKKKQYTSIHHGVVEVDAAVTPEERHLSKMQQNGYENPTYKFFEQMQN", "UniProt Q15831, sequence (whole entry, looked up)": "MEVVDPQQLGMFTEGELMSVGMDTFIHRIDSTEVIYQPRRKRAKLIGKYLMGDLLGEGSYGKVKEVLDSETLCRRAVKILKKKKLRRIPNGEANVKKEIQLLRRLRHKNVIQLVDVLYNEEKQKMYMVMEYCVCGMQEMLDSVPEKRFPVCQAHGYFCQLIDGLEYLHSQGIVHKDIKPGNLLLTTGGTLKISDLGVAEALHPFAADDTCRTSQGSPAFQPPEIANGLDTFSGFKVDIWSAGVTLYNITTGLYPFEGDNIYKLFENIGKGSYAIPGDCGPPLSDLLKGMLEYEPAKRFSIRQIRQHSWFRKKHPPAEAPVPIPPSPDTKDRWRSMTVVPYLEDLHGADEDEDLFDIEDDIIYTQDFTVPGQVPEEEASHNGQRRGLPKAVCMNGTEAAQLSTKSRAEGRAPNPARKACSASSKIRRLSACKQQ", "UniProt P32745, sequence (whole entry, looked up)": "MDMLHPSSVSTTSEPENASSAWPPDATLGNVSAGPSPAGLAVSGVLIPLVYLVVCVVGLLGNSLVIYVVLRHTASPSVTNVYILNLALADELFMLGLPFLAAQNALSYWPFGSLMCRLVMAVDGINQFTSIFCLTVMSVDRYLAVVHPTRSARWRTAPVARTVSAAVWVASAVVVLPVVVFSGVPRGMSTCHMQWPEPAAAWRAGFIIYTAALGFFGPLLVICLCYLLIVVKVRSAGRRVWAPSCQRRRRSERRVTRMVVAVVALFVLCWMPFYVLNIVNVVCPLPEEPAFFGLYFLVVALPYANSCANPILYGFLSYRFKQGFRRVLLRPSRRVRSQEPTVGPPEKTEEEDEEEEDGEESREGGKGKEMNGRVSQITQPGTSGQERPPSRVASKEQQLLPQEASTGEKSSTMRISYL", "UniProt P04629, sequence (whole entry, unmodified, looked up)": "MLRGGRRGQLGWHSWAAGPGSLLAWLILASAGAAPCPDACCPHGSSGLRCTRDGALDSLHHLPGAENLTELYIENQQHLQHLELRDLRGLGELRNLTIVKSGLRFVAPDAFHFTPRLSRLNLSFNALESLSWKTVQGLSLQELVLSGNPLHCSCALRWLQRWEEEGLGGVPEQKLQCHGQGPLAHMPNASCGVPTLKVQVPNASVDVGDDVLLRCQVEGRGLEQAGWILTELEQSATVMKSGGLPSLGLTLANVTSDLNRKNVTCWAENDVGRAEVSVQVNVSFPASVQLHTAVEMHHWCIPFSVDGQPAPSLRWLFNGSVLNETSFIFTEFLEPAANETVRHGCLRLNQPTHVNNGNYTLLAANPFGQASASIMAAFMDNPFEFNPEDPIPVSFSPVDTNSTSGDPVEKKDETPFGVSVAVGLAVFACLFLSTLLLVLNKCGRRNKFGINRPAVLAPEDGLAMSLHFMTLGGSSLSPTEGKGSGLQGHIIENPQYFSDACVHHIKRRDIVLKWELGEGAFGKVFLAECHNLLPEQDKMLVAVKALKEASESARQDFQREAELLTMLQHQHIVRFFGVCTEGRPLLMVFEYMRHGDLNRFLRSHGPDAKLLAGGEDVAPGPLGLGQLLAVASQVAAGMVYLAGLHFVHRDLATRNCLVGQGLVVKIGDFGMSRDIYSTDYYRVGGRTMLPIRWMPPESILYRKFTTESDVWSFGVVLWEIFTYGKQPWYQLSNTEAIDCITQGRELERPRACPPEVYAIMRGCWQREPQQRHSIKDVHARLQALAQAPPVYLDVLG", "UniProt O75751, sequence (whole entry, looked up)": "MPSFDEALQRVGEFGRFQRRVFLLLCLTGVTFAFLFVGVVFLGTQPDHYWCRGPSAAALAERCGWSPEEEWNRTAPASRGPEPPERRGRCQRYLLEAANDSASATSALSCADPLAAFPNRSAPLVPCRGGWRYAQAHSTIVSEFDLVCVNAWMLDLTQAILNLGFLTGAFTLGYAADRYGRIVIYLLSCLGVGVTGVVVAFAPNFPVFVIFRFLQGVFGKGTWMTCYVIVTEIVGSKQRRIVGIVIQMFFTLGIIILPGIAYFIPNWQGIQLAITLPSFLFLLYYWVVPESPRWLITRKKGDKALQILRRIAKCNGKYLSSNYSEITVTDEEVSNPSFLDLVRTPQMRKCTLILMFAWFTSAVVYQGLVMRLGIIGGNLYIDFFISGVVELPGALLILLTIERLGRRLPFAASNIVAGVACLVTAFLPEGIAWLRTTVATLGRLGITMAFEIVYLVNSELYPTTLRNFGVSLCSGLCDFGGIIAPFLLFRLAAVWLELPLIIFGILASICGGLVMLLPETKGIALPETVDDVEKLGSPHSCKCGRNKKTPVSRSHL", "UniProt Q03330, sequence (whole entry, looked up)": "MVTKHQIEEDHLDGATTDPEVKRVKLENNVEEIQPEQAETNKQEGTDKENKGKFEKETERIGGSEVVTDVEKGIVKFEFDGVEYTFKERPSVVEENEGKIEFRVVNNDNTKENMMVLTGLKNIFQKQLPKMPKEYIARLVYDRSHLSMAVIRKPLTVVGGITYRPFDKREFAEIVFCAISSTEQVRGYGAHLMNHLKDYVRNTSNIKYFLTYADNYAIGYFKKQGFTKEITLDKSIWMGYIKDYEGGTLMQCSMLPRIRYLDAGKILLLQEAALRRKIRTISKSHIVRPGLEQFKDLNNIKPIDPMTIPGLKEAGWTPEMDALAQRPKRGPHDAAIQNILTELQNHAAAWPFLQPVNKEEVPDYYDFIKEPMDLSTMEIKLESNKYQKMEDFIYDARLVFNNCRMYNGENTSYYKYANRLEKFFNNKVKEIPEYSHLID", "UniProt Q8N884, sequence (whole entry, looked up)": "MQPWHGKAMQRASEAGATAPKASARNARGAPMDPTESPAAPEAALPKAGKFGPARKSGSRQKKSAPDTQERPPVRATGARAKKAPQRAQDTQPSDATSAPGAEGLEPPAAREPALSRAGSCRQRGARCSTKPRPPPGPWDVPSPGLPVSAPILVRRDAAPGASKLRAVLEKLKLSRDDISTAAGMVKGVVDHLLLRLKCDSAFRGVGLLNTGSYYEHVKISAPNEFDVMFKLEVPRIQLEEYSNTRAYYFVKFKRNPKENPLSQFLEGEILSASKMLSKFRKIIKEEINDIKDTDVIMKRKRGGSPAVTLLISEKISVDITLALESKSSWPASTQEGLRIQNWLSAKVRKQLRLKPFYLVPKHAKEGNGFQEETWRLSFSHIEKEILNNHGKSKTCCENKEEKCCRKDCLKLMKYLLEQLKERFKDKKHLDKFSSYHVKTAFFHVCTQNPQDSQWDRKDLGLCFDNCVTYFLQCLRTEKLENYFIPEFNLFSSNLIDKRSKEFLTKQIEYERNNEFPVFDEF"}
{"SMILES": "CNc1ccc(-c2nc3ccc(O)cc3s2)cc1", "target": "Amyloid-beta precursor protein, amyloid-beta (APP, Homo sapiens, UniProt P05067)", "assay": "binding, competition binding", "system": "amyloid-beta aggregates", "conditions": "250 nM, added: tritiated amyloid ligand", "inhibition": "94.6% and 91.1%"}
{"SMILES": "COc1cc(C(=O)NS(=O)(=O)c2ccccc2C)ccc1Cc1cn(C)c2ccc(NC(=O)OC3CCCC3)cc12", "target": "Volume-regulated anion channel subunit LRRC8C, part LRRC8A IL1 chimera (LRRC8C, Homo sapiens, UniProt Q8TDW0, I133F)", "assay": "ion current, inhibitor, whole-cell patch clamp", "system": "HCT LRRC8-/- cells", "conditions": "10 µM, +100 mV", "inhibition": "54.7% and 95.3% and 62.8% and 73.7% and 59.5%"}
{"SMILES": "C#Cc1cc(-c2cc(Nc3nc(N[C@@H](C)c4ccc(F)cn4)ncc3Cl)n[nH]2)ccc1C=O", "target": "NTRK1 (Homo sapiens, UniProt P04629, G595R/G667A)", "assay": "enzyme activity, inhibitor", "conditions": "0.2 µM", "inhibition": "107%"}
{"SMILES": "CC[C@@H]1[C@H](F)C(=O)N[C@@H]1COc1nccc2cc(C(N)=O)c(OC)cc12", "target": "STK11 (Homo sapiens, UniProt Q15831)", "assay": "ATP-site probe binding, ActivX profiling", "system": "THP-1 cell lysate", "conditions": "0.01 mM, Lys2 site", "inhibition": "-0.5%"}
{"SMILES": "OO", "target": "Histone acetyltransferase GCN5, with Ada2 and Ada3 (Saccharomyces cerevisiae S288c, UniProt Q03330)", "assay": "enzyme activity, inhibitor", "conditions": "250 µM, Gcn5-Ada2-Ada3 complex, 1 mM DTT, added: [3H]acetyl-CoA", "inhibition": "12 ± 10%"}
{"SMILES": "Cc1nn(-c2nc3ccccc3[nH]2)c(O)c1C(c1ccccc1C(=O)O)c1c(C)nn(-c2nc3ccccc3[nH]2)c1O", "target": "CGAS (Homo sapiens, UniProt Q8N884)", "assay": "enzyme activity, inhibitor, PPiase-coupled", "conditions": "12.5 µM, 1.5 h", "inhibition": "74.2%"}
{"SMILES": "CN1CCN(c2cc(-c3ccncc3)c(-c3ccc4ccccc4c3)nn2)CC1", "target": "SSTR3 (Homo sapiens, UniProt P32745)", "assay": "antagonist, FLIPR", "conditions": "10 µM", "inhibition": "20.8%"}
{"SMILES": "O=C(Nc1cccc2c(=O)cc(-c3nnn[nH]3)oc12)c1ccc(OCCCCc2ccccc2)cc1", "target": "LRRC8A/LRRC8C (Homo sapiens, UniProt Q8IWT6+Q8TDW0, Y124F/Y126F)", "assay": "ion current, whole-cell patch clamp", "system": "HCT LRRC8-/- cells", "conditions": "1 µM, -100 mV, Y124F/Y126F heteromers", "inhibition": "7.1% and -10.2% and -12.7% and -7.66% and 39.3% and -11.1%"}
{"SMILES": "C[C@@H]1CCO[C@H]2Cn3cc(C(=O)NCc4ccc(F)cc4F)c(=O)c(O)c3C(=O)N12", "target": "SLC22A3 (Homo sapiens, UniProt O75751)", "assay": "transport", "system": "MDCK-II, transfected", "conditions": "0.3 µM, added: MPP+ 2 µM", "inhibition": "7.13%"}
{"note": "A few entries again:"}
{"SMILES": "OO", "target": "Histone acetyltransferase GCN5, with Ada2 and Ada3 (Saccharomyces cerevisiae S288c, UniProt Q03330)", "assay": "enzyme activity, inhibitor", "conditions": "250 µM, Gcn5-Ada2-Ada3 complex, 1 mM DTT, added: [3H]acetyl-CoA", "inhibition": "12 ± 10%"}
